Results of several laboratories.
Compare with care: the assays were run in different laboratories. Numbers after ± are the reported error.
Ugcg: Ceramide glucosyltransferase (Ugcg, Mus musculus, UniProt O88693)
Chain of UniProt O88693 (whole entry, looked up): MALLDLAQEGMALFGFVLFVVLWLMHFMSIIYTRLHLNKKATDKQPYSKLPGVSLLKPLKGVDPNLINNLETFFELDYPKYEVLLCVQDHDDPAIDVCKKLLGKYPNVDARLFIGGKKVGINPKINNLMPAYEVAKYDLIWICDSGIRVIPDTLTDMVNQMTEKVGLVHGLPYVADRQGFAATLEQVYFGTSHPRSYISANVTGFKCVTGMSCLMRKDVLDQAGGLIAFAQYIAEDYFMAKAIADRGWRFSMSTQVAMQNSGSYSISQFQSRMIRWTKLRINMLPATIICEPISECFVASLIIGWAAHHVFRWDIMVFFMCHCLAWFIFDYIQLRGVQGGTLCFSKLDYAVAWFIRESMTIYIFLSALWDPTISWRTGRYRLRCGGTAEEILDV

CC(C)=CCC1=C([O-])C(=O)c2ccccc2C1=O.CC(C)=CCC1=C([O-])C(=O)c2ccccc2C1=O.[Zn+2].c1ccc(-c2ccnc3c2ccc2c(-c4ccccc4)ccnc23)cc1  Epc2 cathodic peak potential (cyclic voltammetry; CH2Cl2, Bu4NPF6; 0.1 mM; reference: Ag/AgCl sat. KOH): -0.39 V
CC1(N(CC(=O)O)CC(=O)O)CN(CC(=O)O)CCN(CC(=O)O)C1  protonation constant (log) (pH-potentiometry, refers to: logK3H; 0.15 M NaClO4; 25 °C): 3.86
O=C(Nc1ccc(C2CCCCC2)cc1)C1(N2CCOCC2)CC1  hepatic clearance (liver microsome stability; cynomolgus liver microsomes; 1 µM): 36 mL/min/kg
Cc1cc(-c2ccc(C(=O)[C@@H]3CCCC[C@H]3C(=O)Nc3cnn4c3C(=O)NCC4)cc2)[nH]n1  radioactivity recovery per interval (human, faeces; oral, 200 mg, 264-288 h; reference: dose): 0.31%
COc1ccc(CCC(C)N2CCc3cc(O[11CH3])c(OC)cc3C2)cc1 (racemic)  parent compound fraction (plasma; injection, 30 min; reference: radioactivity): 12.5 ± 2.9%
O=C(N/N=C/c1ccc(C[n+]2ccccc2)cc1)c1cncc(C(=O)N/N=C/c2ccc(C[n+]3ccccc3)cc2)n1  ΔTm (22CTA telomeric G4-DNA antiparallel; FRET melting; 1 µM, K10 buffer, DNA 0.2 µM): 12.6 ± 0.3 °C
CCNC(=S)NN=Cc1c2ccccc2cc2ccccc12.Cc1ccc(C(C)C)cc1.[Cl][Ru+]  aquation rate constant (UV-Vis spectrophotometry; 298 K, 50 mM NaCl): 0.0012 ± 0.0002 s⁻¹
CCCCCCCCOCCCCCN1C[C@H](O)[C@@H](O)[C@H](O)[C@@H]1CO  IC50 (Ugcg; enzyme activity, inhibitor, fluorescence): 50 nM
O=C(NCCO)c1ccc([C@H]2[C@@H](F)[C@@H](F)C[C@@H](F)[C@H]2F)cc1  hepatic clearance (liver microsome stability; human liver microsomes; 1 µM, without NADPH): 3.9 mL/min/kg
C=CC(=O)Nc1cc(Nc2nccc(-c3c[nH]c4ccccc34)n2)c(OC)cc1N(C)CCN(C)C  recovery (storage stability; human dried blood spots; 5 h, -80 °C, medium QC level): 93.2%
O=C(NC1CCOCC1)c1ccc(C2CCCCC2)cc1  hepatic clearance (liver microsome stability; cynomolgus liver microsomes; 1 µM): 42 mL/min/kg
COc1cccc(OC)c1-c1cc(C(=O)NC2(C(=O)O)C3CC4CC(C3)CC2C4)nn1-c1ccc(C(=O)N(C)CCOCCN(C)C(=O)[C@H](CCCCNC(=O)[C@H](CC(C)C)NC(=O)C2OC2C(=O)O)NC(=O)CN2CCN(CC(=O)[O-])CCN(CC(=O)[O-])CCN(CC(=O)[O-])CC2)cc1C(C)C.[177Lu+3] (mixture of isomers)  tissue uptake (mouse HT-29 xenograft, large intestine; 72 h post injection, biodistribution): 0.119 %ID/g
COC1C=COC2(C)Oc3c(C)c(O)c4c(c3C2=O)C2=NC3(CCN(CC(C)C)CC3)NC2=C(NC(=O)C(C)=CC=CC(C)C(O)C(C)C(O)C(C)C(OC(=O)c2cccnc2)C1C)C4=O (stereo not drawn)  fAUC/MIC ratio (CD-1 mouse, plasma; oral, dose not given, efficacy dose): 151
CCc1cnc(NC(=O)c2cc(S(=O)(=O)N3CCOCC3)ccc2N(C)C2CCCC2)s1  Monocytes differential count (mouse, blood; 10 mg/kg, 3 doses): 9%
COc1ccc2c(c1)CN(C(=O)CCN1CCC(Cc3ccccc3)CC1)CCS2  fu (dog plasma; 7500 ng/mL): 0.161
CN(C)C(=O)CNC(=O)c1ccc(C2CCCCC2)cc1  hepatic clearance (liver microsome stability; dog liver microsomes; 1 µM): 24 mL/min/kg
O=C(N1CCCCC1)C12CC(c3ccccc3)(C1)C2(Cl)Cl  compound remaining (metabolic stability; human, liver microsomes; 2 µM, 7 min, pH 7.4): 96%
O=C(N/N=C/c1ccc2c(ccc[n+]2Cc2ccccc2)c1)c1cccc(C(=O)N/N=C/c2ccc3c(ccc[n+]3Cc3ccccc3)c2)n1  ΔTm (22CTA telomeric G4-DNA antiparallel; FRET melting; 1 µM, K10 buffer, DNA 0.2 µM, together with: ds26 10 µM): 15.2 ± 0.2 °C
CC(=O)Nc1ccc(C2CCCCC2)cc1  hepatic clearance (hepatocyte stability; cryopreserved mouse hepatocytes; 1 µM): 83 mL/min/kg
CC(C)=CCC/C(C)=C/CC/C(C)=C/COCCCCCN1C[C@H](O)[C@@H](O)[C@H](O)[C@H]1CO  IC50 (Ugcg; enzyme activity, inhibitor, fluorescence): 500 nM
O=C(NS(=O)(=O)c1cccs1)c1cc2ccccc2n1Cc1ccc(Br)c2ccccc12  volume of distribution (steady state) (Sprague-Dawley rat, male, plasma; intravenous, 2 mg/kg): 0.507 L/kg

Some of these lines once more:
CC(=O)Nc1ccc(C2CCCCC2)cc1  hepatic clearance (hepatocyte stability; cryopreserved mouse hepatocytes; 1 µM): 83 mL/min/kg
CC(C)=CCC/C(C)=C/CC/C(C)=C/COCCCCCN1C[C@H](O)[C@@H](O)[C@H](O)[C@H]1CO  IC50 (Ugcg; enzyme activity, inhibitor, fluorescence): 500 nM
O=C(NS(=O)(=O)c1cccs1)c1cc2ccccc2n1Cc1ccc(Br)c2ccccc12  volume of distribution (steady state) (Sprague-Dawley rat, male, plasma; intravenous, 2 mg/kg): 0.507 L/kg
